Measurements from different studies.
Each line is one published result; not all experiments were run side by side. ± gives the spread as reported.

COc1ccc2cc3[n+](cc2c1OCCCOC(=O)c1cscn1)CCc1cc2c(cc1-3)OCO2
plasma triglyceride reduction (C57BL/6 mice, high-fat diet; oral gavage, 40 mg/kg daily, 14 weeks; baseline: HFD control): 38.7%

NCCOCCO.O=C(O)C(Cl)Cl
herbicidal inhibition (Eleusine indica; 15 mg/mL, 21 days, post-emergence, greenhouse): 0%

c1ccc(-c2n[nH]cc2-c2ccnc3ccccc23)nc1
log2 fold change (PKH3 (Candida albicans); kinase binding, MIB/MS competition; Candida albicans lysate; 1 µM; baseline: DMSO): -0.08

Cc1ncsc1-c1ccc(C(C)NC(=O)C2CC(O)CN2C(=O)C(NC(=O)CCCCCCCCCCN2CCCC(Nc3ncc(Cl)c(Nc4ccccc4S(=O)(=O)C(C)C)n3)C2)C(C)(C)C)cc1 (stereo not shown)
log2 fold change (22Rv1; RNA-seq, item: SLC6A19 mRNA; concentration not given; baseline: DMSO): -1.7

CNS(=O)(=O)Nc1nccc(Cc2c(C)c3ccc(Oc4ncccc4F)cc3oc2=O)c1F
IC50 (CAL-120; cell viability; 7 days): > 1 µM

O=C(N/N=C/c1cc[n+](Cc2ccccc2)c2ccccc12)c1cccc(C(=O)N/N=C/c2cc[n+](Cc3ccccc3)c3ccccc23)c1
ΔTm (myc22 MYC G4-DNA parallel; FRET melting; 1 µM, K1 buffer, DNA 0.2 µM): 8.1 ± 0.2 °C

Nc1ncc(-c2cc(-c3cnn(CC(F)(F)F)c3)ncc2F)nc1C(=O)NC1CNCC(F)C1 (stereo not shown)
remaining binding (VRK2; KINOMEscan; 1 µM; baseline: DMSO control): 53%

COc1ccc(C(=O)CCc2cc(C(CCc3ccc(O)cc3OC)c3ccc(O)cc3)c(O)cc2OC)cc1 (racemic)
DHA level (human blood; 3 µM, with: A23187): 159000 ± 79600 pg/mL

Cc1cccc2c1N(C(=O)n1ccnn1)CC2
hypocotyl length (Arabidopsis thaliana; wild type; 10 µM, seedlings): 10.8 mm

CCN(C(=O)c1cc(F)ccc1Oc1nncnc1N1CCC2(C1)CN([C@H](CCCN(C)CCOC)C(C)C)C2)C(C)C
GI50 (ACHN; cell growth or viability; 72 h): > 10 µM

CC(=O)[O-].O.O.O.O.[Ni+2].[O-]c1ccc(Br)cc1C=NCCN1CCOCC1
inhibition (hydroxyl radical scavenging; 40 µM): 8.17%

C[n+]1ccc(/C=N/NC(=O)c2ccc3ccc(C(=O)N/N=C/c4cc[n+](C)cc4)nc3n2)cc1
ΔTm (myc22 MYC G4-DNA parallel; FRET melting; 1 µM, K1 buffer, DNA 0.2 µM, with: ds26 10 µM): 5.8 ± 0.5 °C

CCN(CC)CC(=O)Nc1cccc(-n2cc(-c3ccc4ccc(-c5cn(-c6cccc(NC(=O)CN(CC)CC)c6)nn5)cc4c3)nn2)c1
fold regulation (RCC4; PCR angiogenesis array, item: NRP1; 5 x IC50, 6 h, normoxia; baseline: untreated): -1.43

Cn1ncc2cc(-c3cncc(Cl)c3N3CCC4(CCNC4=O)CC3)ccc21
log2 fold change (LS174T; gene expression, microarray, item: GDF15 (PDF) mRNA; concentration not given, 4 h; baseline: untreated cells): -1.61

COC1CN([C@H]2CC[C@H]([C@@]3(C)Oc4c(Cl)cc(C(=O)NCc5c(SC)cc(C)[nH]c5=O)c(C)c4O3)CC2)C1
log2 fold change (RNA-seq, item: STARD10; human, whole blood; dose not given, 24 h; baseline: pretreatment baseline): 1.34

CNCc1ccc2c(c1)C[C@H](CNC(=N)N)[C@H]2NC(=O)C(=O)Nc1ccc(Cl)c(F)c1
IC80 (HIV-1; viral infection; TZM-bl, CRF02_AG 235-47 Env pseudovirus): 37.2 µM

O=C(N/N=C/c1cc[n+](Cc2ccccc2)c2ccccc12)c1cncc(C(=O)N/N=C/c2cc[n+](Cc3ccccc3)c3ccccc23)n1
ΔTm (myc22 MYC G4-DNA parallel; FRET melting; 1 µM, K1 buffer, DNA 0.2 µM, with: ds26 10 µM): 17.4 ± 0.3 °C

C=C(NC(=O)c1csc(-c2nc3c(cc2O)-c2nc(cs2)C(=O)NC(C(C)O)C(=O)NC(=C(C)OC)c2nc(cs2)C(=O)NC2c4nc(cs4)C(=O)NC(COC(=O)c4c5c6c(cccc6n4O)COC(=O)C(OC4CC(C)(O)C(N(C)C)C(C)O4)C2OC5)c2nc-3cs2)n1)C(N)=O (stereo not shown)
lung bacterial load (Streptococcus pneumoniae; -25, immunocompromised mice, lung; 16 mg/kg/day once daily, 24 h post-dose): 4.03 log10 CFU/lung

C[n+]1ccc(/C=N/NC(=O)c2ccc3ccc4ccc(C(=O)N/N=C/c5cc[n+](C)c6ccccc56)nc4c3n2)c2ccccc21
ΔTm (myc22 MYC G4-DNA parallel; FRET melting; 1 µM, K1 buffer, DNA 0.2 µM, with: ds26 10 µM): 24.7 ± 0.4 °C

C=CC(=O)Nc1cccc(Cn2ncc3cnc(Nc4cnn(CCOC)c4)nc32)c1
percent of control (STK36 human; binding, KINOMEscan; 100 nM; lower = stronger binding): 94%

CC[n+]1cccc2cc(/C=N/NC(=O)c3cncc(C(=O)N/N=C/c4ccc5c(ccc[n+]5CC)c4)n3)ccc21
ΔTm (myc22 MYC G4-DNA parallel; FRET melting; 1 µM, K1 buffer, DNA 0.2 µM, with: ds26 10 µM): 19.3 ± 0.6 °C

C=CC(=O)N1[C@@H](c2ccc3c(c2)OCO3)c2[nH]c3ccccc3c2C[C@H]1C(=O)N1CCN(C)CC1
relative co-enrichment (human cyclin E1 N112C-3xFLAG:CDK2; co-IP with TMT proteomics, item: BCLAF1; concentration not given, Q9NYF8; baseline: wild type DMSO): 128%

C[n+]1cc(/C=N/NC(=O)c2cc(C(=O)N/N=C/c3cc4ccccc4[n+](C)c3)ncn2)cc2ccccc21
ΔTm (myc22 MYC G4-DNA parallel; FRET melting; 1 µM, K1 buffer, DNA 0.2 µM, with: ds26 10 µM): 4.3 ± 0.3 °C

CN1CCC[C@]1(C)/C=C/S(=O)(=O)NC(=O)Nc1c2c(cc3c1CCC3)CCC2
IL-18 inhibition (human, whole blood ex vivo; 400 mg single dose, 6 h, single ascending dose, with: LPS and ATP): 80.1%

C[n+]1cc(/C=N/NC(=O)c2cccc(C(=O)N/N=C/c3cc4ccccc4[n+](C)c3)n2)cc2ccccc21
ΔTm (myc22 MYC G4-DNA parallel; FRET melting; 1 µM, K1 buffer, DNA 0.2 µM): 19.1 ± 0.1 °C

CN1CCCNC(=O)c2cccc(c2)C(=O)NCCCN(C)CCCNc2cccc3c2C(=O)c2cccc(c2C3=O)NCCC1
log2 fold change (SAS; RNA-seq, item: MAST4-AS1 mRNA; 1 µM, 6 h; baseline: untreated cells): 1.72

COc1cc(O)ccc1CCC(c1ccc(O)cc1)c1cc2c(c(C)c1O)OC(c1ccc(O)cc1)CC2 (mixture of isomers)
EPA level (human blood; 30 µM, with: A23187): 73500 ± 18000 pg/mL

C[n+]1cccc2cc(/C=N/NC(=O)c3cccc(C(=O)N/N=C/c4ccc5c(ccc[n+]5C)c4)n3)ccc21
ΔTm (myc22 MYC G4-DNA parallel; FRET melting; 1 µM, K1 buffer, DNA 0.2 µM): 19.6 ± 0.5 °C
